# Experimental data pooled from the literature.
# Parts stem from different laboratories: compare values within a part only.

# Study 1
# Target: RNA binding protein fox-1 homolog 2, RRM domain, GST-SBP tag (RBFOX2, Homo sapiens, UniProt O43251-10, residues 100-194)
# Technique: RNA Bind-n-Seq
# Molecule type: RNA
# Matrix: in vitro
# Concentration: 365 nM
# Setting: natural RNA segment, single round, ends assumed
# Baseline: no-protein control
# Reading: higher = stronger binding
# Residues (chain): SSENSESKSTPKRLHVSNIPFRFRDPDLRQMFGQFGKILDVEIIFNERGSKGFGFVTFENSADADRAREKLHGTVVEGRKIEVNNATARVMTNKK
Strand,RBNS enrichment (R)
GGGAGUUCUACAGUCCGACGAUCGUGUGGUGGCGCAUGCCUGUAAUCCCAGCUACUUGGGAGACUGAGGCAAGAGAAUCACUUGAACCCGGGAGGUGGAGGUGGCAGUGAGCCGAGAUUGCGCCAUUGCACUCUGGAAUUCUCGGGUGCCAA,2.17
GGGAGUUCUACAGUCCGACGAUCGCCCCAUGUGUCCUGGUGAGAAAAUAUAUGCCUGGCACAGCUUUUGUAUAGAAAAUUCUUGAGAAGUAACUGUCCGCUAGAAGUCUGUCCAAAUUUAAAAUGUGUGCCAUUGGAAUUCUCGGGUGCCAA,0.361
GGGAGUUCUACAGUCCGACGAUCCCGUCCCAGUUUGCCUGGGACUUUCUCAUUUUUACAGAGUCCCAAAUCCUAGGAAACUGGAGCAACUGGUACAACUGGUCACCUACUCUUGCCCCUCUGUAAAUCAAGCCUGGAAUUCUCGGGUGCCAA,0.252
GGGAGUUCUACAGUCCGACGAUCAGCCCAGCGCAUCACUCUCGGCUUGCUGGUGCAGUUCACCAUCUCACUGGCCCUACAACUGCCUUAGAGGAGUCAGCUGUCCAGUUUUAGAUCCCAGGAGUCACAGCAGAUGGAAUUCUCGGGUGCCAA,0.486
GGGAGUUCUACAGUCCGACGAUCGGGGAGGGAACAUACCACCCAGCCAGGCUUAGCAUUGGGUUUUAUCCUUUAAUAAAAGUUUUAUAAUGAAUCCUGUUCACCUUAAAGUGUGAUUAUGGAGAUGAUUGGCUUGGAAUUCUCGGGUGCCAA,0.468
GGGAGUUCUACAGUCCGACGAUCAGCAGGUACGGUUCUGAUUCUGAUUGCUAUCAAUAACACCCCAUACUUUCUUUGAACAUACUUUGACCUGAAGCUCAAAGGUGGCAGUUGUGAGAUUGGGACACAUAUCUUGGAAUUCUCGGGUGCCAA,0.503
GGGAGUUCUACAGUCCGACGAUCGGGCCUCCUAGAAACUUUAUUGCAGAGAUGACUGGAGGCCAUUGGUGUUUCCAGGAGAGCUAGCAUGUUUCUACAAGUGUAGGACUGGAUUGUGGAUCUGCUAUCUAACAUGGAAUUCUCGGGUGCCAA,1.28
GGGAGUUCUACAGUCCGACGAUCCCAGAGCCAUCCCUGAAGCCAGGUGACUGUCCCAAGGUCUUCCCUCCCGGGAGCCCAACCUUUCGAGUGCAGCCAAACCUUACUGCUUUUACAACAUUGCACAGCUGUGUUGGAAUUCUCGGGUGCCAA,0.294
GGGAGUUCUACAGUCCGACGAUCAUAGUUUCCUCAAACACAAAUCAGUGUUCCCACGAACAAGUUCCAGUUGAGAAACACUAAGGUUAUGGUGAAUAAAACCAUAGGGAGCUUCUUCCCCCCAACCCCUGGCUUGGAAUUCUCGGGUGCCAA,0.201
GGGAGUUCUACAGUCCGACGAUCCUGCCUCGUAAGCGUUUCCUCCCUGAAUUGAAGUACAUAGGCUAAUAUAUUAUUUUGUAGUAUCUCAGACUUUGCAUAAAUACUAUUAUUUUUGUAUGGAAUUUUUUACAUGGAAUUCUCGGGUGCCAA,0.734
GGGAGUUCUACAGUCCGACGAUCCAAAAUAACGCCCCAGAUACCAGCCCCUGUAUGGCACUGGCAUUGUCCCUGUGCCUAACACCAGCGUUUGAGGGGCUGGCCUUCCUGCCCUACAGAGGUCUCUGCCGGCUUGGAAUUCUCGGGUGCCAA,0.209
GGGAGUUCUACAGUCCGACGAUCUGAAUGUCUCAAUUUAAAACUUGAAGCUCUUUAGACCAAUAGACUGGUGAGAGGAGAAAGGAGCUUAUCCCCCAGACCCUGCUUUAUACCAUUCACAUCCCAGGGCUGUGUGGAAUUCUCGGGUGCCAA,0.478

# Study 2
# Target: Interferon regulatory factor 7, full length, phosphomimetic (IRF7, Homo sapiens, UniProt Q92985, residues 1-503, S101K/S471D/S472D/S475D/S476D/S477D/S483D/S484D/S487D)
# UniProt Q92985, sequence (whole entry, unmodified, looked up): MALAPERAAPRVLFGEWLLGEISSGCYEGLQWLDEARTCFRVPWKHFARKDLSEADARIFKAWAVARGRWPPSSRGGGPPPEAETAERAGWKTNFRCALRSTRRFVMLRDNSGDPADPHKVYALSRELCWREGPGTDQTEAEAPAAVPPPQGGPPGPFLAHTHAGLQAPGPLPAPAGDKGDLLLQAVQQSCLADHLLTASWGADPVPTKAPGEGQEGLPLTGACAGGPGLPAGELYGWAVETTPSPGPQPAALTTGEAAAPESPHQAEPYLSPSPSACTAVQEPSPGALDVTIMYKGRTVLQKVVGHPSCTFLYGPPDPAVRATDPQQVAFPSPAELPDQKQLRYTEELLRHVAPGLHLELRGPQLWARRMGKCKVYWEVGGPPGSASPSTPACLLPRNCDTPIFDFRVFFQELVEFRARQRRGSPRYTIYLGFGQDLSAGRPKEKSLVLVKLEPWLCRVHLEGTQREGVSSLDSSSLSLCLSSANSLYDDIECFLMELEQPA
# Technique: protein-binding microarray
# Molecule type: double-stranded DNA, one strand shown
# Matrix: in vitro
# Concentration: 250 nM
# Setting: 60-bp whole probe
# Together with: salmon DNA 0.4 mg/ml
# Baseline: random background probes
# Reading: higher = stronger binding
# Shared flanks, not repeated: GCCTAGCAC … GTCTTGATTCGCTTGACGCTGCTG
Strand,log fluorescence [z-score]
TTAGATTTCAGGTCCGATTAGTGCTAG,0.734
TGAGATTTCGGGTTTCGATTAGTGCTA,7.71
TTAGGACTGGGTATGGGTTAGTGCTAG,-0.378
TTAGGAGTGGACACTGGGTTAGTGCTA,-0.69
CACGATTTCAGTCTCGAGACGTGCTAG,1.01
GACGGACTGGGTTTCAGGACGTGCTAG,-0.223
TTAGGTCCCCTTTTCCTTTAGTGCTAG,2.46
TTAGGTTTCCTTATCCTTTCGTGCTAG,2.76
TTAGGTTTGGGACTGGGTTAGTGCTAG,-0.134
GACGAGTTCAGACTGGAGACGTGCTAG,-0.128
TTAGGTATCCACTTTCGGTTAGTGCTA,2.25
GACGATATCGGGTATCGAGGCGTGCTA,-0.25
GAAGATTTCAGTCTCGAGACGTGCTAG,0.525
GTCGGTATCGGGACTGGGGACGTGCTA,0.131
GACGGTCTCCTTCTCCTCACGTGCTAG,0.146
TTAGGTATCGAATTTCGGTTAGTGCTA,1.91
TTAGGTTTCGTCACTGGGTTAGTGCTA,1.68
GACGATCTCAGTTCCGAGACGTGCTAG,0.161
TCAAGTGTCAATAATGACACTGTGCTA,-0.296
TTCGCTTTCTTTAACTCATTGTGCTAG,1.25
TCATTTTTTTTTTTTGGACTGTGCTAG,0.723
GACGATATCTGACTGGAGACGTGCTAG,-0.208
TTAGGACTGGACACTGGGTTCGTGCTA,-0.791
GACGGTTTCGGGGATCGGGACGTGCTA,2
GACGAAGTGGGGTTTCGAGACGTGCTA,1.7

# Study 3
# Target: Histone acetyltransferase KAT6A, both winged helices, GST fusion (KAT6A, Homo sapiens, UniProt Q92794, residues 1-181)
# Technique: protein binding microarray
# Molecule type: double-stranded DNA, one strand shown
# Matrix: in vitro
# Concentration: not given
# Setting: 8-mer, flanks averaged, mean of 2 arrays, mostly near background
# Baseline: not given
# Reading: higher = stronger binding
# Target sequence (chain): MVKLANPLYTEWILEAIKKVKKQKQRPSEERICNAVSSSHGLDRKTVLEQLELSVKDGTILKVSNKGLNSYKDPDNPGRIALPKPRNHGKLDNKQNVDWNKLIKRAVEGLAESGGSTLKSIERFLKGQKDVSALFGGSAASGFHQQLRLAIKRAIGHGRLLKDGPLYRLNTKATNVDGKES
Strand,E-score
GGCTTAGA,-0.0715
GTTGTTCA,-0.0415
AAAACACG,0.175
AAGTACAA,-0.0681
GTTGAAAA,-0.128
ATTATCAC,-0.0199
TAAAAACA,0.0821
CATATGCC,-0.0767
CAGTTGGC,-0.0446
CCATGCGA,-0.075
AGTAGACG,-0.0924
GAAGAGCA,-0.0518
ATACTCAA,-0.0693
AACGTGCT,-0.17
ACAGTTTA,-0.0639
GTGGGCTA,-0.233
AGCGGACT,0.115
AGGCTTTA,-0.161
AAGCCACT,-0.25
ATCATCGG,0.15
CGCCTTAA,0.0367
GGGATTGA,-0.0208
GATCAGGC,-0.099

# Study 4
# Target: RING finger protein unkempt homolog, zinc fingers 1-6, GST-SBP tag (UNK, Homo sapiens, UniProt Q9C0B0, residues 30-357)
# UniProt Q9C0B0, sequence (30-357, looked up): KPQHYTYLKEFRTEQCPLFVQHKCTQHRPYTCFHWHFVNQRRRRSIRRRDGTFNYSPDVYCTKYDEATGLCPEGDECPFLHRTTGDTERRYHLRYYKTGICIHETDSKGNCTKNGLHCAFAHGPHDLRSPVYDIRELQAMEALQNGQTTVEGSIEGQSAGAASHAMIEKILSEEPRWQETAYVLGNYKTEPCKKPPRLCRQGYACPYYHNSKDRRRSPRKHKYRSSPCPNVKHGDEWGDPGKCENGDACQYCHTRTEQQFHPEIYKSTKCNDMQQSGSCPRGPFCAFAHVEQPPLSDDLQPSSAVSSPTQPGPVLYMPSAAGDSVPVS
# Technique: RNA Bind-n-Seq
# Molecule type: RNA
# Matrix: in vitro
# Concentration: not given
# Setting: RNA with constant flanks, human-mouse chimeric sites, ends assumed
# Baseline: input RNA pool
# Reading: higher = stronger binding
Strand,bound/input enrichment
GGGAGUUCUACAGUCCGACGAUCUUACCCGAGAACGAGGAUGAGCUGGAGAGCACCAACAGGCGCUACACCAAGAGAGACUGCAGCACUUUCCUCAGAACUAGUGAGACGGGCAUUGUGGACCAGGUCAUGGUCACUCUCAACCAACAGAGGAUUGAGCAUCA,0.144 ratio
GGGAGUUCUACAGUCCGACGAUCGACUUUGGGACUGGUCCUCGCAACGCAGCCUUCUAUAGCCCUCAUGGACAUAUAUUAGUGCUGGCUGGAUUUGGAAAUCUUCGAGGACAAAUGGAAGUGUGGGAUGUGAAAAACUACAAGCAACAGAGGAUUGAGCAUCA,0.367 ratio
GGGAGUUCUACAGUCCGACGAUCAAUUUCCUGUCAUACUUUUUAGACAUUCACAUCAGACGCCUUACUACCCUGGCCACAUUCUAGGUUUGUGUUAUUUCUCAGCUAUGGAUAUGAUCAAAUGAGAACACUGGCAGCCAGAUGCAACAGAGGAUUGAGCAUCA,0.728 ratio
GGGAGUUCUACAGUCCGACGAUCGCAGGAUCUUCUAAGUACCAGUGGGACAUUAUGAAAUCCCUUGGGCUCUCUGAUGACGACAUAGUGAAGUUUUCUGAAGCAGAGCACUGGCUUGAUUAUUUCCCGCCACUGGCUAUUCAGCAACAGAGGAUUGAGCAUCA,0.113 ratio
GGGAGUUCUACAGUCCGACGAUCGACAGUGAAGAAGAGAUUAGAGAAGCAUUCCGUGUGUUUGAUAAGGAUGGCAAUGGCUAUAUUAGUGCUGCAGAACUUCGCCAUGUGAUGACAAACCUUGGCGAGAAGUUAACAGAUGAACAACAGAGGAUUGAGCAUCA,0.474 ratio
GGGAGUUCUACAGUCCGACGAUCCAGUCCCGCGACAGCGUUGCAGGACGAUGUGAACAAAAACUCAAAGCGGCCCUUUCUUUGUAGUUCUUGAUUCUCGAAAUGUGCUAUUAUUGUUUGUCUUUUUUUUUUUUUUUUUAAAGACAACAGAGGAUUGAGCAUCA,1.43 ratio
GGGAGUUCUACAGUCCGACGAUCGUGUCCUUUCAACUUAAAUCACUGAGGAGGCAUCUCUACUGUUCUGUGAGCAUCAGGACUGUAGCGCUGUGUCACCACAUGAGAGUUCAGAAGCAGCCUUUCUGUGGAGGGUGGGAAUGACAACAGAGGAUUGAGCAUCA,0.163 ratio
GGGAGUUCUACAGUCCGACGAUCUAAGUUAUUUUGUACAGCUUUGUAAAUUCUUAACAUUUUUAUAUUGCCAUGUUUAUUUUGUUUGGGUAAUUUGGUUCAUACAUGGCCAAACCAAAUAAAUGAACAUCUUUUUCAGUAAUUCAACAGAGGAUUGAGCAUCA,1.09 ratio
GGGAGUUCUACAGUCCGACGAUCAAAGAGUGGAUAGAGUGUGCACAUGGAAUCGGUGGGACCCGGGCGAAAAAGGAGUGCAAGAUAGAGUUCGAUGACUUCGAAGAGUGCUUGCUUCGGCACAAAACGAUGAGGCGAAUGCAUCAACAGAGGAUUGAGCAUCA,0.41 ratio
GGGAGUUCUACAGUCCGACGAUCUAAAUCCUGUGCCAGCACUUCGCUCAUAAAGUUUUAAAUUCUGGACCAAUAGUGUUUGUUUCCUGAUUAUUGUAUCCAAUACUUUGCCUAGUAUGUAACUCAUGCUUACUGAUAAUAAAACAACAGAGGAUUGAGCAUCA,0.651 ratio
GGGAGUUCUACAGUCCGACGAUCUAUAAUAAUCAUGAAAUUCGUUCUGGAAAGCACAUUGGUGUCUGCAUCUCAGUUGCCAACAAUAGGCUUUUUGUGGGCUCUAUUCCUAAGAGUAAAACCAAGGAGCAGAUUCUUGAGGAACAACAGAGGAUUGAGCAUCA,0.436 ratio
